Measured values gathered from unrelated publications.
Compare with care: the assays were run in different laboratories. Numbers after ± are the reported error.
B1: Mena EVH1 1-113 (Homo sapiens, UniProt Q8N8S7); chain MSEQSICQARAAVMVYDDANKKWVPAGGSTGFSRVHIYHHTGNNTFRVVGRKIQDHQVVINCAIPKGLKYNQATQTFHQWRDARQVYGLNFGSKEDANVFASAMMHALEVLNS
B2: IL18 37-193 S46C/C74S/C104S/C112S/C163S/V189C (Homo sapiens, UniProt Q14116); chain YFGKLESKLCVIRNLNDQVLFIDQGNRPLFEDMTDSDSRDNAPRTIFIISMYKDSQPRGMAVTISVKSEKISTLSSENKIISFKEMNPPDNIKDTKSDIIFFQRSVPGHDNKMQFESSSYEGYFLASEKERDLFKLILKKEDELGDRSIMFTCQNED
B3: RSPO4/IgG1 Fc RSPO4 32-137 Q65R/N297Q; CPT2 conjugated via azide click; chain GGNCTGCIICSEENGCSTCQQRLFLFIRREGIRRYGKCLHDCPPGYFGIRGQEVNRCKKCGATCESCFSQDFCIRCKRQFYLYKGKCLPTCPPGTLAHQNTRECQGGGGGSGGGGSGGGGS
B4: Flrt3 29-359 (Mus musculus, UniProt Q8BGT1); chain KSCPSVCRCDAGFIYCNDRSLTSIPVGIPEDATTLYLQNNQINNVGIPSDLKNLLKVQRIYLYHNSLDEFPTNLPKYVKELHLQENNIRTITYDSLSKIPYLEELHLDDNSVSAVSIEEGAFRDSNYLRLLFLSRNHLSTIPGGLPRTIEELRLDDNRISTISSPSLHGLTSLKRLVLDGNLLNNHGLGDKVFFNLVNLTELSLVRNSLTAAPVNLPGTSLRKLYLQDNHINRVPPNAFSYLRQLYRLDMSNNNLSNLPQGIFDDLDNITQLILRNNPWYCGCKMKWVRDWLQSLPVKVNVRGLMCQAPEKVRGMAIKDLSAELFDCKDSG
B5: USP7 207-560 C223A (Homo sapiens, UniProt Q93009); sequence looked up; chain SKKHTGYVGLKNQGATAYMNSLLQTLFFTNQLRKAVYMMPTEGDDSSKSVPLALQRVFYELQHSDKPVGTKKLTKSFGWETLDSFMQHDVQELCRVLLDNVENKMKGTCVEGTIPKLFRGKMVSYIQCKEVDYRSDRREDYYDIQLSIKGKKNIFESFVDYVAVEQLDGDNKYDAGEHGLQEAEKGVKFLTLPPVLHLQLMRFMYDPQTDQNIKINDRFEFPEQLPLDEFLQKTDPKDPANYILHAVLVHSGDNHGGHYVVYLNPKGDGKWCKFDDDVVSRCTKEEAIEHNYGGHDDDLSVRHCTNAYMLVYIRESKLSEVLQAVTDHDIPQQLVERLQEEKRIEAQKRKERQE
B6: RRP1B 657-758 (Homo sapiens, UniProt Q14684); chain RRAKSSTATHPPGPAVQLNKTPSSSKKVTFGLNRNMTAEFKKTDKSILVSPTGPSRVAFDPEQKPLHGVLKTPTSSPASSPLVAKKPLTTTPRRRPRAMDFF
B7: SRS2 1107-1174 I1152A/L1156A (Saccharomyces cerevisiae, UniProt P12954); N-terminal cysteine BODIPY-FL; chain CHNPDDTTVDNRPIISNAKFLADAAMKKTQKFSKKVKNEPASSQMDAFSQASRAKKKSKLNNGEIIVID
B8: designed binder (Homo sapiens); chain MASAARLTMMWEEVTCPICLDPFVEPVSIECGHSFCQECISQVGKGGGSVCPVCRQRFLLKNLRPNRQLANMVNNLKEISQEAREGTQGERCAVHGERLHLFCEKDGKALCWVCAQSRKHRDHAMVPLEEAAQEYQEKLQVALGELRRKQELAEKLEVEIAIKRADWKKTVETQKSRIHAEFVQQKNFLVEEEQRQLQELEKDEREQLRILGEKEAKLAQQSQALQELISELDRRCHSSALELLQEVIIVLERSESWNLKDLDITSPELRSVCHVPGLKKMLRTCAGGGGSGGGGSGGGGSRLDAPSQIEVKDVTDTTALITWGDPYSYIVRFELTYGIKDVPGDRTTISLRYYYHYYSIGNLKPDTEYEVSLISYSTYYDYRYSSNPAKITFKTGL
B9: EFR3A 721-791 (Homo sapiens, UniProt Q14156); chain SNTEEITFEALKKAIDTSGMEEQEKEKRRLVIEKFQKAPFEEIAAQCESKANLLHDRLAQILELTIRPPPS
UniProt P36873, sequence (whole entry, looked up): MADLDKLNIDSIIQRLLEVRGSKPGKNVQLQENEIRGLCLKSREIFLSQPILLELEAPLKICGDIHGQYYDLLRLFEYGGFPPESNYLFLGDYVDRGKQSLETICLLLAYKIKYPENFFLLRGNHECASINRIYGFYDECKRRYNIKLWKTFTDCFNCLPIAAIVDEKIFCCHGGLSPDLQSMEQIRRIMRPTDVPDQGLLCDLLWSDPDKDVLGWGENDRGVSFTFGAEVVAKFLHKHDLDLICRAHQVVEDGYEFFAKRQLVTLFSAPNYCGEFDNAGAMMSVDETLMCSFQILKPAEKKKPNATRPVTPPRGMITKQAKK
UniProt Q8R5A3, sequence (whole entry, unmodified, looked up): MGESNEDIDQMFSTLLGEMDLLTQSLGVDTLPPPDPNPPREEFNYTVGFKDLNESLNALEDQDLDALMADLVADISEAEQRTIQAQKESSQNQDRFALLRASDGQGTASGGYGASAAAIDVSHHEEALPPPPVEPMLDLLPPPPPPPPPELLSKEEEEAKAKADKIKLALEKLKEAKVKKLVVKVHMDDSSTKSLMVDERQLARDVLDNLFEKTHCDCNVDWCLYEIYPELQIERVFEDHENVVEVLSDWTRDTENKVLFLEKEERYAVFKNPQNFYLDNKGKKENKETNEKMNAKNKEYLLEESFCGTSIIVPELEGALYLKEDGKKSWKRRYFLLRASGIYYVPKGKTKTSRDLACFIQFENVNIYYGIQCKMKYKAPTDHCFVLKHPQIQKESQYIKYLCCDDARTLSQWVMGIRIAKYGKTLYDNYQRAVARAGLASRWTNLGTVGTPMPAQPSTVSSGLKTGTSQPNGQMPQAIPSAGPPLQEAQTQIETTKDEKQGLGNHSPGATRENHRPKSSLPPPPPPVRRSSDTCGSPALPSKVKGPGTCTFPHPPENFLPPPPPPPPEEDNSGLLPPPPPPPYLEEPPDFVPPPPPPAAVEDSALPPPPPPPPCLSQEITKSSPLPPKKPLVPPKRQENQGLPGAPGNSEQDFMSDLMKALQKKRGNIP
UniProt Q8IZJ1, sequence (whole entry, looked up): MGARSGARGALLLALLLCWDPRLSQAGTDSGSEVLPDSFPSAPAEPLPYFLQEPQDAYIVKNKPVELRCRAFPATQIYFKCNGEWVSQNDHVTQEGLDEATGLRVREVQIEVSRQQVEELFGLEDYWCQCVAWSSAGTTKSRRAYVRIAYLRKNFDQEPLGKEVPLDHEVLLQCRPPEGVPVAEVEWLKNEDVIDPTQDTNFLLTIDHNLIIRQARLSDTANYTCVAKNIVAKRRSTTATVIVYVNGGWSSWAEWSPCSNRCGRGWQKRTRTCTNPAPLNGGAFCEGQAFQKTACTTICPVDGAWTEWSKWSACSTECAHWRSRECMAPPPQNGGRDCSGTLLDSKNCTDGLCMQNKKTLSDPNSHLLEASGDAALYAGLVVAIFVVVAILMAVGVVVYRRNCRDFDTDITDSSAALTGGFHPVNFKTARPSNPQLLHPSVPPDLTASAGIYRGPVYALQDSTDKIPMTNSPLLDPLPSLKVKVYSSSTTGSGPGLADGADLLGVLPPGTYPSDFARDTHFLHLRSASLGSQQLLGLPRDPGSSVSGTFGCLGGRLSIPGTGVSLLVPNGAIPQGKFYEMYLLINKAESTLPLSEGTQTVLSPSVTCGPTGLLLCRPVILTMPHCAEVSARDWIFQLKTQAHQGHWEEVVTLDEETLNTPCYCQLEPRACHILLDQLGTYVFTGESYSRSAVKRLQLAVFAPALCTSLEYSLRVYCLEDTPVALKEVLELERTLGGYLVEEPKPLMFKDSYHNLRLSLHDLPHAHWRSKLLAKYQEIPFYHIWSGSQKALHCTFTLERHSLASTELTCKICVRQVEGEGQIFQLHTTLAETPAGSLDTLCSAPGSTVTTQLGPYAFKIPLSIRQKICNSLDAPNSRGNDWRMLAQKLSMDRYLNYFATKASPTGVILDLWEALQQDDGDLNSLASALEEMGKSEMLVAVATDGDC
UniProt O75530, sequence (whole entry, looked up): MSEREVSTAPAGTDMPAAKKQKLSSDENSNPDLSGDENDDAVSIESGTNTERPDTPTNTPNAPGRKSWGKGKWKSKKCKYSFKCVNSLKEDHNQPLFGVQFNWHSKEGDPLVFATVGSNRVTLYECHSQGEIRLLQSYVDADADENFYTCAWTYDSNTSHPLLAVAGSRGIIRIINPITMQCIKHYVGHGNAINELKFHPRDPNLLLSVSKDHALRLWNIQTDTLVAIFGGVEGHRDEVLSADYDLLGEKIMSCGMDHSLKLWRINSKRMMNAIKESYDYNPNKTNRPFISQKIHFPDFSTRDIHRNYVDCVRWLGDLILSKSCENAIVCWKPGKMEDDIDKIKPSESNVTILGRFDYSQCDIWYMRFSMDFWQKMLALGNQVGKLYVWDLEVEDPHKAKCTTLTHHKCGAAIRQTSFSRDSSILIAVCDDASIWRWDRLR
UniProt Q9N5M6, sequence (whole entry, looked up): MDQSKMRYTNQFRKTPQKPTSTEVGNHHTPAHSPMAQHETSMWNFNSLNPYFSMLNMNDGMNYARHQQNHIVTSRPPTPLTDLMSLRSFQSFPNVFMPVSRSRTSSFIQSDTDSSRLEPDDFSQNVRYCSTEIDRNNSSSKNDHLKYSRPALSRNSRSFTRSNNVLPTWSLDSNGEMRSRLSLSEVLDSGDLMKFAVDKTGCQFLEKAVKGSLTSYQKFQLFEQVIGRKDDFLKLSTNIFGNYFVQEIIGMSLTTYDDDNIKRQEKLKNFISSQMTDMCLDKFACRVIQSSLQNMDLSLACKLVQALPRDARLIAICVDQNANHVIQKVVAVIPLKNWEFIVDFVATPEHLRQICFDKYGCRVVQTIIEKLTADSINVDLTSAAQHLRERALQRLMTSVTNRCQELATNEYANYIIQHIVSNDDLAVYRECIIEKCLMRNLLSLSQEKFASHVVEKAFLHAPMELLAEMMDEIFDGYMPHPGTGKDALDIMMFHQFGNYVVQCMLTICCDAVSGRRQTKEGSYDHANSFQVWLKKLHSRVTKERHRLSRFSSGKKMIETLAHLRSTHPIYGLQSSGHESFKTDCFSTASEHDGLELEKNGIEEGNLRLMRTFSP
UniProt Q5BJF2, sequence (whole entry, looked up): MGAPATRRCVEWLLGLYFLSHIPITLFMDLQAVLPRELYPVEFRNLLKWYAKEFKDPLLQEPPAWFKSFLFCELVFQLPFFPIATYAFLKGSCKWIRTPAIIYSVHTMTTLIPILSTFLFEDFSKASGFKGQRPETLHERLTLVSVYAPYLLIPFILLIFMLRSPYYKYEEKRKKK
UniProt Q9ZU93, sequence (whole entry, looked up): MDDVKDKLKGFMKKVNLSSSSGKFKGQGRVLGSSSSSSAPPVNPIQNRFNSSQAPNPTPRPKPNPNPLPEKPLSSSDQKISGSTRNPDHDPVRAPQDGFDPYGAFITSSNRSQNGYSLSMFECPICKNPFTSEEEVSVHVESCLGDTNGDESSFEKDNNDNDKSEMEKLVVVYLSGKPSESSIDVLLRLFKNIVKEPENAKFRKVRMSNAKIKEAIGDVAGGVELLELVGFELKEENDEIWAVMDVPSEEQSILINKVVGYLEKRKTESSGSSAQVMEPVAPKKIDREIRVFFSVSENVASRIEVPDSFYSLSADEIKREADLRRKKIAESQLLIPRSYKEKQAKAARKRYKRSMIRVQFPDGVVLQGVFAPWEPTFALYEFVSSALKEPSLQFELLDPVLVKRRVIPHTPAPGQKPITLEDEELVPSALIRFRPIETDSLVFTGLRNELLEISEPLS
UniProt Q96B97, sequence (whole entry, looked up): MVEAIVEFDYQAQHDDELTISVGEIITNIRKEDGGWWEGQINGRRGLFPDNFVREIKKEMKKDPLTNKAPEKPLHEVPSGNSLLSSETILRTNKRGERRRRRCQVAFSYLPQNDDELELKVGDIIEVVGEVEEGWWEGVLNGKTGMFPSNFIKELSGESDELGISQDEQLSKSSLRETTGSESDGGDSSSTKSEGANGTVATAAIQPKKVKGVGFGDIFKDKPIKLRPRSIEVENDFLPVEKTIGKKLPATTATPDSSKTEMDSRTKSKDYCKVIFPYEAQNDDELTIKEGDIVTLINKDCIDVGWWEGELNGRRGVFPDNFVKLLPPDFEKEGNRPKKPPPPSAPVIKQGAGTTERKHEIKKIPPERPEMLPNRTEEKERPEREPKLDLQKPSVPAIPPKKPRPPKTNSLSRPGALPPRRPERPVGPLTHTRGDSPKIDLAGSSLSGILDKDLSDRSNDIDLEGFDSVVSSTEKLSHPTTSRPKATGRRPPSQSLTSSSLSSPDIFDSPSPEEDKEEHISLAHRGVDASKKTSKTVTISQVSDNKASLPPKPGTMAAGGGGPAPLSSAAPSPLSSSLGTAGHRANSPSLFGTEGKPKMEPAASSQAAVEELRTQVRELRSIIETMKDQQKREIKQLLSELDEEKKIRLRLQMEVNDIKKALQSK

The Kd of `SQAPARPPKPRPRRTAY (Cbl-b residues 899-915)` is reported as 9.9 ± 3.8 µM (SH3KBP1 1-58 (Homo sapiens, UniProt Q96B97); ITC; peptide; 25 °C).
With `B1 (Mena EVH1 1-113)` the Kd was 20.2 µM (PTP1B (Homo sapiens); ITC).
With `GYRRKFAAAAASHREFPF (HTN1 residues 9-26 alanine substitutions at 15-19)` the Kd was over 50 µM (TMEM97 (Homo sapiens, UniProt Q5BJF2); SPR; peptide).
`B2` has a Kd of 1.8e-05 µM (IL18BP (Homo sapiens, UniProt O95998); SPR).
For `B3`, the Kd was 0.0013 µM (LGR5 (Homo sapiens, UniProt O75473); whole-cell binding saturation; Fc fusion, HEK293T).
With `B4 (Flrt3 29-359)` the Kd was 15 µM (UNC5B 27-375 (Homo sapiens, UniProt Q8IZJ1); SPR).
With `GRIN2A fragment S1459E (sequence not shown)` the Kd was 25 µM (SNX27 fragment (Rattus norvegicus); ITC).
With `EGLN1 fragment` the Kd was 23.6 ± 3 µM (HIF1A CODD peptide 556-574, C-terminal amide (Homo sapiens); BLI).
`B5 (USP7 207-560 C223A)` has a Kd of 241 ± 39 µM (ubiquitin, 15N-labelled (UniProt P0CG48); NMR titration).
`Tln1 fragment (Mus musculus)` gave a Kd of over 100 µM (RIAM TBS peptide 5-25 M11E/F12E/L15E/L16E, stapled, FITC label (Mus musculus, UniProt Q8R5A3); fluorescence polarization; with: FITC-labeled peptide 20 nM).
With `Cacna1c distal C-terminal regulatory (Rattus norvegicus)` the Kd was 88 ± 10 µM (CACNA1C IQ motif 1644-1668 F1658E, fluorescein label (UniProt P15381); fluorescence polarisation).
With `SQELHKLQTYPRTNTGSGTP (salmon calcitonin 13-32, N-terminal FITC-Ahx/C-terminal amide (Salmo salar); N-terminal FITC-Ahx/C-terminal amide)` the Kd was 1.7 µM (RAMP2/CALCR extracellular domain 55-140 (Homo sapiens); fluorescence polarization; peptide).
`B6 (RRP1B 657-758)` gave a Kd of 0.0404 µM (PPP1CC 7-323 (Homo sapiens, UniProt P36873); ITC).
`PARRSEELVAEAHNLCTLLENAIQDTVREQDQSFTALDWSWLQTE (IKBKB 701-745 K703R/K704R (UniProt O14920); N-terminal FITC; sequence looked up)` has a Kd of 0.018 µM (IKBKG 1-196 (Homo sapiens, UniProt Q9Y6K9-1); fluorescence polarisation; peptide).
For `B7 (SRS2 1107-1174 I1152A/L1156A)`, the Kd was 18.5 µM (POL30 1-258 K127G (Saccharomyces cerevisiae, UniProt P15873); fluorescence polarisation; apparent).
`B8 (designed binder)` has a Kd of over 3.8 µM (EED (Homo sapiens, UniProt O75530); BLI; designed binder).
With `SAAAAGDDDDLYN (CDC48A 797-809 (Arabidopsis thaliana))` the Kd was 17.1 ± 0.9 µM (PUX2 157-273 (Arabidopsis thaliana, UniProt Q9ZU93); ITC; peptide; 25 °C).
The Kd of `Homer EVH1 domain (Capsaspora owczarzaki)` is reported as over 150 µM (DVL3 peptide (Homo sapiens); BLI).
With `KLLMIIHDRREFAKFEKEKMNAKWDTQENPIYKSPINNFKNPNYGRKAGL (ITGB1 752-801 (Homo sapiens, UniProt P05556-5); sequence looked up)` the Kd was 39 µM (Tln2 312-408 Q407K (Mus musculus, UniProt Q71LX4); NMR titration).
`SSSPQQRSGLRSQKLHLTYIEKNKRVRAMIPQ (lst-1 67-98 (Caenorhabditis elegans, UniProt P91820); sequence looked up)` has a Kd of 0.4 µM (fbf-1 162-614 (Caenorhabditis elegans, UniProt Q9N5M6); ITC; peptide; NaCl 150 mM).
For `Cacng2 fragment (Mus musculus) (sequence not shown)`, the Kd was 40 µM (DLG4 PDZ1, pS73 (Homo sapiens); ITC).
`B9 (EFR3A 721-791)` gave a Kd of 0.000298 µM (TTC7B/FAM126B FAM126B 1-308; BLI).
`PVDPDNEAYEM (SNCA residues 117-127 (Homo sapiens); N-acetyl, C-terminal amide)` has a Kd of 87 ± 7.8 µM (STIP1 TPR2A (Homo sapiens); BLI; peptide).

Excerpt of the above:
`B9 (EFR3A 721-791)` gave a Kd of 0.000298 µM (TTC7B/FAM126B FAM126B 1-308; BLI).
With `SAAAAGDDDDLYN (CDC48A 797-809 (Arabidopsis thaliana))` the Kd was 17.1 ± 0.9 µM (PUX2 157-273 (Arabidopsis thaliana, UniProt Q9ZU93); ITC; peptide; 25 °C).
